Results from different studies.
Compare with care: the assays were run in different laboratories. ± marks the error that the study gave.
ipgm-1: ipgm-1 (Brugia malayi, UniProt Q4VWF8)
Sequence of UniProt Q4VWF8 (whole entry, looked up): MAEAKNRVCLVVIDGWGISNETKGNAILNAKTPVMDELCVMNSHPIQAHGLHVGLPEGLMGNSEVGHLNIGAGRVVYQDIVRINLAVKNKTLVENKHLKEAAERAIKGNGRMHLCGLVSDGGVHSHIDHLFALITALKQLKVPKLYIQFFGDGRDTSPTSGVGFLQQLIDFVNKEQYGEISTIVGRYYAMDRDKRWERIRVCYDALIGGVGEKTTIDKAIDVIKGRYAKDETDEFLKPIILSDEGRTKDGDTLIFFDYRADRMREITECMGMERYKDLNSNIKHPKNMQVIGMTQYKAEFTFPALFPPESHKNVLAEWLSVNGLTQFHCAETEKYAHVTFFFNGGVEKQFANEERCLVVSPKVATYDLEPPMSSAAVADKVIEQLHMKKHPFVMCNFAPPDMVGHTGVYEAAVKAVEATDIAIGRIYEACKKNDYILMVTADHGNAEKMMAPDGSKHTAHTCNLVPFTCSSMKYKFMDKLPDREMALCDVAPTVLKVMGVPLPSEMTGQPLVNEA
gpmI: gpmI (Escherichia coli, UniProt P37689)
Sequence of UniProt P37689 (whole entry, looked up): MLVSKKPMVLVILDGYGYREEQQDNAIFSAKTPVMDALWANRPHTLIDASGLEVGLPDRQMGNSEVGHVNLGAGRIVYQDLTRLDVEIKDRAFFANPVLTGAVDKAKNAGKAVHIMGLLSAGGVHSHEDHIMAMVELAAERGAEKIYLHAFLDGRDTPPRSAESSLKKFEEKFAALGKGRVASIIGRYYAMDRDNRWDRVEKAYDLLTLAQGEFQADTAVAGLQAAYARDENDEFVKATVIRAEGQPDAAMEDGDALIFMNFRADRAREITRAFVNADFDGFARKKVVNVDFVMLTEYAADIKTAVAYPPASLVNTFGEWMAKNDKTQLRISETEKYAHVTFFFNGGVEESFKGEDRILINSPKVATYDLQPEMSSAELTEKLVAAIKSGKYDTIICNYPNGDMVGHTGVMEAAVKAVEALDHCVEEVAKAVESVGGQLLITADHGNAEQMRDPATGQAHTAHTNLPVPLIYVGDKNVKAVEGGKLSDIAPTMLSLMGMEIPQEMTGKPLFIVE
Sequence of UniProt P48546 (whole entry, looked up): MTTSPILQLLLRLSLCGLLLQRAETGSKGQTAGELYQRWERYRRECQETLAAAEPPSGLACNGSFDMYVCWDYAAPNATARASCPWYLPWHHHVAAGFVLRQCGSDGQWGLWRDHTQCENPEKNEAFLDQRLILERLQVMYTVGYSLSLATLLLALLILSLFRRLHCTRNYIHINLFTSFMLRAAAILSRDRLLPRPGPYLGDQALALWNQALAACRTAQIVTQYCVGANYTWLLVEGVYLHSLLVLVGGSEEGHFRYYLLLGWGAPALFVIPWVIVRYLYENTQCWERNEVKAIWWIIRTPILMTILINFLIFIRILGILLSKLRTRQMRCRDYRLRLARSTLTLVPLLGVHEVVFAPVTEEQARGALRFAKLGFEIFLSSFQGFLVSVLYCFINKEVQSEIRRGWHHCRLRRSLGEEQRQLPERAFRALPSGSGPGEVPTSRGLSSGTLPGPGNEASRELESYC
Sequence of UniProt P28221 (whole entry, looked up): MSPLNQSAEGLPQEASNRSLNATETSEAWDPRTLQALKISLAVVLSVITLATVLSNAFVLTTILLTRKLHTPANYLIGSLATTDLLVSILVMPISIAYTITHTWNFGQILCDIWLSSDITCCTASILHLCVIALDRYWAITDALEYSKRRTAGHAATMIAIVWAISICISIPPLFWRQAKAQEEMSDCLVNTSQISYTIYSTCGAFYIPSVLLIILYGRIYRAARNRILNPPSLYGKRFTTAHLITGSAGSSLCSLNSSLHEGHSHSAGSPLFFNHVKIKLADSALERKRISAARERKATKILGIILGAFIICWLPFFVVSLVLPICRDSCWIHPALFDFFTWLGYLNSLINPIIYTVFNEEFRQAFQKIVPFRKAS
Sequence of UniProt P23977 (whole entry, looked up): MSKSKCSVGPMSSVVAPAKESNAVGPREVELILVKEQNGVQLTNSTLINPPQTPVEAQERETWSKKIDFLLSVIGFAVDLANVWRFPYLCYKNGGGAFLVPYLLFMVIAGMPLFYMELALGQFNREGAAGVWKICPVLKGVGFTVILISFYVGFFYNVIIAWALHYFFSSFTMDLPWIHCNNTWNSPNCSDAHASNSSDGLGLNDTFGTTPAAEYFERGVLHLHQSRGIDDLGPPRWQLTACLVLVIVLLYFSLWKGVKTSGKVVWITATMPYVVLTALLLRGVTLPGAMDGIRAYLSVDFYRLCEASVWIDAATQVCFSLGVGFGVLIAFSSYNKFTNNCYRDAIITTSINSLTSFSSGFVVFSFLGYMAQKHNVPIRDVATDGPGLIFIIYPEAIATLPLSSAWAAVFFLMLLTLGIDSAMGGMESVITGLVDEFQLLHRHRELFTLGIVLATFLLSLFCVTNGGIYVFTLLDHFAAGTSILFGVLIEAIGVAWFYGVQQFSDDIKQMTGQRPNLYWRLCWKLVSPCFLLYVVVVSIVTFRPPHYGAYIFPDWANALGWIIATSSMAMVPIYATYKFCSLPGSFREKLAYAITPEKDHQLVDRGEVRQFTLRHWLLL
Sequence of UniProt P41144 (whole entry, looked up): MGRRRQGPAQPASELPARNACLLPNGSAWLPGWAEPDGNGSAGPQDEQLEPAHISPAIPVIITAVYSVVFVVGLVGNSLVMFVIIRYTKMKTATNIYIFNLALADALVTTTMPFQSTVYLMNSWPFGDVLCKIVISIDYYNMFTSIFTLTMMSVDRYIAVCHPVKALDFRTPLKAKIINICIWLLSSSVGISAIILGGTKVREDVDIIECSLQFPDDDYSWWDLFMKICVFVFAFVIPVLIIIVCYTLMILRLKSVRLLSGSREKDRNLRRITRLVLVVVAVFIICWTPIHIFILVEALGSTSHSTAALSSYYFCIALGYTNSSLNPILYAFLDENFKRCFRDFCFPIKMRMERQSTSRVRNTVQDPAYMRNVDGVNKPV
Sequence of UniProt P40337 (whole entry, looked up): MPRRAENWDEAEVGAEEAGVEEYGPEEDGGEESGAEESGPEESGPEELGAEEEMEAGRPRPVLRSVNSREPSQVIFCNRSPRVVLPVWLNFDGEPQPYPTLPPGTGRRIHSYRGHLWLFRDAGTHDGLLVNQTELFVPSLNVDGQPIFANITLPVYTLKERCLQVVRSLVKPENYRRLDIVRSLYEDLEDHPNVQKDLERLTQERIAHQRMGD
Sequence of UniProt P07948 (whole entry, looked up): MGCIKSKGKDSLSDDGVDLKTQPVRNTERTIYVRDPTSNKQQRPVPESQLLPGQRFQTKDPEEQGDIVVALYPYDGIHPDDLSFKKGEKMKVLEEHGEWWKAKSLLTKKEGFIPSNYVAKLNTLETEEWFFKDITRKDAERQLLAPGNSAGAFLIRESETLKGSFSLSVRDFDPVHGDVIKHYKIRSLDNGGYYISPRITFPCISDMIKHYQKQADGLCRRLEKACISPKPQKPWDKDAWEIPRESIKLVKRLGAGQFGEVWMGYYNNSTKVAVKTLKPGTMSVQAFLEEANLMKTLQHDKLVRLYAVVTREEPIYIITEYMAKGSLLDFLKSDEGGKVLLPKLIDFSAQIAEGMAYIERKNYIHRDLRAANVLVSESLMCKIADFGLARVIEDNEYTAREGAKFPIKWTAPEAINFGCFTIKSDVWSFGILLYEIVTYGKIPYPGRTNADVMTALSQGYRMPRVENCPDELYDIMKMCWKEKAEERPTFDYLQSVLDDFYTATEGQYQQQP
Sequence of UniProt P05177 (whole entry, looked up): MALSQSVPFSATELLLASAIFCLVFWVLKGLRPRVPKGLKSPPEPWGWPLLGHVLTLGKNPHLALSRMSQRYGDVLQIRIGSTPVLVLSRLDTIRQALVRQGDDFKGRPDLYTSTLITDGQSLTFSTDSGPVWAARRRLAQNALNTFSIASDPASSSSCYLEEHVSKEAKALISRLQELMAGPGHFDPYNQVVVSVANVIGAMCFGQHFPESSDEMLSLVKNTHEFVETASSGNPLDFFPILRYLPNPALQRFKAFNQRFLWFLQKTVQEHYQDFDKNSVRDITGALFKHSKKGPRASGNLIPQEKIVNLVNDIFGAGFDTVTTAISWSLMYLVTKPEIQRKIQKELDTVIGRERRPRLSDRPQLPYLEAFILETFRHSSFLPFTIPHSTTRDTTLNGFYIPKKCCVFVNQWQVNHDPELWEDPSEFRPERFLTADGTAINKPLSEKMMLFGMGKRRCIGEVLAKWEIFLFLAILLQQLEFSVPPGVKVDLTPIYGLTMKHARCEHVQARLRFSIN
Sequence of UniProt P08254 (whole entry, looked up): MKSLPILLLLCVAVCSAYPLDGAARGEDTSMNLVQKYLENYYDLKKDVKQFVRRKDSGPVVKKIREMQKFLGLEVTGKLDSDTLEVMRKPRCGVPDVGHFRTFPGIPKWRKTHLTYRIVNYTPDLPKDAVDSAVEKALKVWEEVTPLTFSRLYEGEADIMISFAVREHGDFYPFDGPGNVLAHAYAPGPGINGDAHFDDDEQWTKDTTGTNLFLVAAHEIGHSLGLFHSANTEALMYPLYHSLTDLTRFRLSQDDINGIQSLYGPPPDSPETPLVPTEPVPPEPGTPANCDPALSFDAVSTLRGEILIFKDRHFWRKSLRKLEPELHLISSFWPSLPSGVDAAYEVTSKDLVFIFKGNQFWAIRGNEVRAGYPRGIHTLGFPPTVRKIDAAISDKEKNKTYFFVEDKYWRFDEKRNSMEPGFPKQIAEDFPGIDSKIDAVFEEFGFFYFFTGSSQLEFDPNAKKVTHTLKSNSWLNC

SMILES	tested on	assay	system	conditions	endpoint	result
COc1ccc(C[C@H]2C(=O)N(C)[C@@H](Cc3ccc(O)cc3)C(=O)N(C)[C@@H](Cc3ccccc3)C(=O)N[C@@H](CC(N)=O)C(=O)NCC(=O)N(C)[C@@H](Cc3ccc(O)cc3)C(=O)N[C@@H](CC(N)=O)C(=O)N[C@@H](Cc3c[nH]cn3)C(=O)N[C@@H](Cc3ccc(O)cc3)C(=O)N[C@@H](Cc3c[nH]c4ccccc34)C(=O)N[C@H](C(N)=O)CSCC(=O)N[C@H](Cc3ccc(O)cc3)C(=O)N[C@@H](CC(=O)O)C(=O)N[C@@H](CO)C(=O)N[C@@H](Cc3ccc(O)cc3)C(=O)N[C@@H](C)C(=O)N2C)cc1	ipgm-1	enzyme activity, inhibitor, luminescent coupled-enzyme ATP	–	–	AC50	24.5 nM
C1N2CN3CN1CP(C2)C3.CC(C)OC(=O)C(n1cccn1)n1cccn1.F[P-](F)(F)(F)(F)F.[Cu+]	LoVo	cell growth or viability	–	3D culture	IC50	156000 nM
CC[C@H](C)[C@H](NC(=O)[C@H](CO)NC(=O)[C@H](Cc1ccc(O)cc1)NC(=O)[C@H](CC(=O)O)NC(=O)[C@H](CO)NC(=O)[C@@H](NC(=O)[C@H](Cc1ccccc1)NC(=O)[C@@H](NC(=O)CNC(=O)[C@@H](N)CCC(=O)O)[C@@H](C)O)[C@@H](C)CC)C(=O)N[C@@H](C)C(=O)N[C@@H](CCSC)C(=O)N[C@@H](CC(=O)O)C(=O)N[C@@H](CCCCN)C(=O)N[C@H](C(=O)N[C@@H](Cc1c[nH]cn1)C(=O)N[C@@H](CCC(N)=O)C(=O)N[C@@H](CCC(N)=O)C(=O)N[C@@H](CC(=O)O)C(=O)N[C@@H](Cc1ccccc1)C(=O)N[C@H](C(=O)N[C@@H](CC(N)=O)C(=O)N[C@@H](Cc1c[nH]c2ccccc12)C(=O)N[C@@H](CC(C)C)C(=O)N[C@@H](CC(C)C)C(=O)N[C@@H](C)C(=O)N[C@@H](CCC(N)=O)C(=O)N[C@@H](CCCCN)C(N)=O)C(C)C)[C@@H](C)CC	GIPR (Homo sapiens, UniProt P48546)	antagonist, Schild analysis, measured: cAMP	COS-7 transfected	10 min preincubation, added: GIP(1-42)	Ki	14.9 nM
CC[C@H](C)[C@H](NC(C)=O)C(=O)N[C@@H](CC(N)=O)C(=O)N[C@@H](Cc1c[nH]c2ccccc12)C(=O)N[C@@H](Cc1c[nH]cn1)C(=O)N[C@@H](C)C(=O)N[C@H](C(=O)N[C@@H](C)C(=O)N[C@@H](Cc1c[nH]cn1)C(=O)N[C@@H](CCSC)C(=O)N[C@@H](C)C(=O)N[C@@H](CCCCN)C(=O)N[C@@H](CCCCN)C(=O)N[C@@H](CC(C)C)C(=O)N[C@@H](CC(C)C)C(N)=O)[C@@H](C)CC	human erythrocytes	binding, hemolysis-monitored titration	–	pH 7.0, added: Ni(II)	Kd	12000 nM
CN1C(=O)[C@H](Cc2ccc(O)cc2)NC(=O)CNC(=O)[C@H](Cc2ccc(O)cc2)NC(=O)[C@H](CCC(=O)O)NC(=O)[C@H](Cc2ccc(O)cc2)N(C)C(=O)[C@H](Cc2ccc(O)cc2)N(C)C(=O)[C@H](CCC(N)=O)NC(=O)[C@H](Cc2c[nH]c3ccccc23)NC(=O)[C@H](Cc2ccc(O)cc2)NC(=O)[C@@H](Cc2ccc(O)cc2)NC(=O)CSC[C@@H](C(N)=O)NC(=O)[C@H](CCCCN)NC(=O)[C@@H]1Cc1ccc(O)cc1	ipgm-1	enzyme activity, inhibitor, luminescent coupled-enzyme ATP	–	–	AC50	3630 nM
Cc1cc(O)cc(C)c1C[C@@H]1NC(=O)[C@H](CCCCN)NC(=O)[C@H](Cc2ccccc2)NC(=O)[C@@H](CCCNC(N)=O)NC1=O	OPRK1 (Cavia porcellus, UniProt P41144)	antagonist	–	–	Kb	307 ± 29 nM
CCC[C@@H](C(=O)c1ccccc1)N1CCCC1	Slc6a3 (Rattus norvegicus, UniProt P23977)	dopamine clearance, inhibitor, fast-scan cyclic voltammetry	rat striatal slices	–	IC50	136 nM
CC(C)[C@@H]1NC(=O)[C@H](CCCNC(=N)N)NC(=O)[C@H](Cc2ccc(O)cc2)NC(=O)[C@H](CO)NC(=O)[C@H](Cc2ccc(O)cc2)N(C)C(=O)[C@H](CC(N)=O)NC(=O)CNC(=O)[C@H](Cc2ccc(O)cc2)N(C)C(=O)[C@H](Cc2ccccc2)N(C)C(=O)[C@H](CC(=O)O)NC(=O)[C@H](Cc2ccc(O)cc2)NC(=O)[C@H](Cc2ccccc2)N(C)C(=O)[C@H](Cc2ccc(O)cc2)N(C)C(=O)[C@H](Cc2ccc(O)cc2)NC(=O)CSC[C@@H](C(N)=O)NC(=O)[C@@H]2CCCN2C1=O	gpmI	enzyme activity, inhibitor, luminescent coupled-enzyme ATP	–	15 min, 37 °C	AC50	4370 nM
C[N+](C)(C)CCc1c[nH]c2cccc(O)c12	HTR1D (Homo sapiens, UniProt P28221)	ligand displacement, radioligand	–	–	Ki	4900 nM
O=P(O)(O)Oc1ccc(Oc2ccc(S(=O)(=O)CC3CS3)cc2)cc1 (racemic)	Stromelysin-1 (MMP3, Homo sapiens, UniProt P08254)	enzyme activity, inhibitor	–	–	Ki	142000 nM
CN1C(=O)[C@H](CCC(=O)O)NC(=O)[C@H](Cc2ccc(O)cc2)NC(=O)[C@H](CCCNC(=N)N)NC(=O)[C@@H](Cc2ccc(O)cc2)NC(=O)CSC[C@@H](C(N)=O)NC(=O)[C@H](CCCCN)NC(=O)[C@@H]2CCCN2C(=O)[C@H](CS)NC(=O)[C@H](CCC(=O)O)NC(=O)[C@H](Cc2ccc(O)cc2)N(C)C(=O)[C@H](CCCCN)NC(=O)[C@H](Cc2ccc(O)cc2)NC(=O)[C@@H]1Cc1ccc(O)cc1	gpmI	enzyme activity, inhibitor, luminescent coupled-enzyme ATP	–	15 min, 37 °C	AC50	18600 nM
CC1=CC(C)=[N+]2C1=Cc1ccc(CCC(=O)NCCOCCOCCOCCOCC(=O)N[C@H](C(=O)N3C[C@H](O)C[C@H]3C(=O)NCc3ccc(-c4scnc4C)cc3)C(C)(C)C)n1[B-]2(F)F	von Hippel-Lindau disease tumor suppressor, with elongin B/C (VHL, Homo sapiens, UniProt P40337)	binding, TR-FRET	–	30 min, total binding	Kd	3.61 nM
O=C(NCc1ccco1)C1CCN(S(=O)(=O)c2ccc(Cl)cc2)CC1	Plasmodium falciparum	parasite growth	NF54	72 h	IC50	1970 ± 440 nM
O=C(Nn1c(-c2cccc(Cl)c2)nc2ccccc2c1=O)c1ccccc1	TRPM channel TRPM_PZQ (Schistosoma japonicum, UniProt A0A4Z2DYB8)	–	–	–	EC50	470 ± 50 nM
COc1ccc(C[C@H]2C(=O)N[C@@H](Cc3ccc(O)cc3)C(=O)N3CCC[C@H]3C(=O)NCC(=O)N[C@@H]([C@@H](C)O)C(=O)N[C@@H](C)C(=O)N[C@@H](CCC(N)=O)C(=O)N(C)[C@@H](Cc3ccc(O)cc3)C(=O)N[C@@H]([C@@H](C)O)C(=O)N[C@H](C(N)=O)CSCC(=O)N[C@H](Cc3ccc(O)cc3)C(=O)N[C@@H](Cc3c[nH]c4ccccc34)C(=O)N(C)[C@@H](Cc3ccc(O)cc3)C(=O)N[C@@H](CC(=O)O)C(=O)N(C)[C@@H](CO)C(=O)N(C)[C@@H](Cc3ccc(O)cc3)C(=O)N2C)cc1	ipgm-1	enzyme activity, inhibitor, luminescent coupled-enzyme ATP	–	–	AC50	34700 nM
CNC(=O)C1CCN(c2ccccc2NC(=O)c2ccc(-c3cc(O)ccc3C)c(C)n2)CC1	Tyrosine-protein kinase Lyn, isoform A (LYN, Homo sapiens, UniProt P07948)	LanthaScreen binding	–	–	Ki	0.8 nM
CCCCCc1cc(O)c2c(c1)OC(C)(C)C1CCC(C)=CC21 (single isomer, unassigned; (-))	Cytochrome P450 1A2 (CYP1A2, Homo sapiens, UniProt P05177)	enzyme activity, inhibitor	microsomes from HEK293 cells	pH 7.4, unbound, fu,inc corrected, added: phenacetin	Ki	90 ± 27 nM
CCCC[C@H]1C(=O)N2CCC[C@H]2C(=O)N[C@H](C(N)=O)CSCC(=O)N[C@@H](Cc2ccc(O)cc2)C(=O)N(C)[C@@H](Cc2ccc(OC)cc2)C(=O)N[C@@H](CCCNC(=N)N)C(=O)N(C)[C@@H](Cc2ccccc2)C(=O)N[C@@H](CC(=O)O)C(=O)N(C)[C@@H](CO)C(=O)N(C)[C@@H](Cc2ccc(O)cc2)C(=O)N[C@@H](CCC(N)=O)C(=O)N[C@@H](CO)C(=O)N(C)[C@@H](CO)C(=O)N(C)[C@@H](Cc2ccc(OC)cc2)C(=O)N[C@@H](C(C)C)C(=O)N(C)[C@@H](Cc2ccc(O)cc2)C(=O)N1C	gpmI	enzyme activity, inhibitor, luminescent coupled-enzyme ATP	–	15 min, 37 °C	AC50	3090 nM

For quick reference, copied from above:
SMILES	tested on	assay	system	conditions	endpoint	result
O=P(O)(O)Oc1ccc(Oc2ccc(S(=O)(=O)CC3CS3)cc2)cc1 (racemic)	Stromelysin-1 (MMP3, Homo sapiens, UniProt P08254)	enzyme activity, inhibitor	–	–	Ki	142000 nM
C1N2CN3CN1CP(C2)C3.CC(C)OC(=O)C(n1cccn1)n1cccn1.F[P-](F)(F)(F)(F)F.[Cu+]	LoVo	cell growth or viability	–	3D culture	IC50	156000 nM
